Measured values of several laboratories.
Numbered parts are unrelated; each lists some results of a single study.

Series 1 — method: RNA Bind-n-Seq; molecule type: RNA; matrix: in vitro; tested at: 200 nM; setting: whole 134-nt RNA, ends assumed; with: 150 mM KCl; baseline: input library; reading: higher = stronger binding
Target: Fragile X messenger ribonucleoprotein 1, C-terminal low-complexity region (Fmr1, Mus musculus, UniProt P35922)
Shared flanks, not repeated: GGGAGUUCUACAGUCCGACGAUC … UGGAAUUCUCGGGUGUCAAGG
With `CAAGUCCUGUGCUACACAUCGUAUGUACCGAAUCGGUUUUGGUUUUGGGUUUUGGAAAGUAUUAUGUUACGCCGUUCGGAUCUGCACUUC` the log2 enrichment was -0.785.
With `UGGGAGGUGGAUUUUGUUUAUUUUUUUAGCUCAUUUCCAGGGGUGGGAAUUUUUUUUUAAUAUAUGUCAUGAAUAAAGUUGUUUUUGAAA` the log2 enrichment was 0.191.
With `CUCAAGUCCUGUGCUACACAUCGUAUGUACCGAAUCGGUGGUUUUUUUGGUGGAAAGUAUUAUGUUACGCCGUUCGGAUCUGCACUUCCA` the log2 enrichment was 0.0766.
`CUGUGCUACACAUCGUAUGUACCGAAUCGGGCCCCCCCGGCCCCCCCGGGGCCCCCCCGGGAAAGUAUUAUGUUACGCCGUUCGGAUCUG` has a log2 enrichment of -0.874.
`GUCCUGUGCUACACAUCGUAUGUACCGAAUCGGGGAAAGGGGUGGGGUUUUUUUGGGGAAAGUAUUAUGUUACGCCGUUCGGAUCUGCAC` gave a log2 enrichment of 0.747.
The log2 enrichment of `ACCAUGCAGGUGGGCAUCUUUGGGAAGUGGGGCAAGGGGGGCAUAGGGAGGGGGGUAACACUUUGGGAACAGGUGGUCCCAGGUCGUUUC` is reported as 0.639.
`CCUCAAGUCCUGUGCUACACAUCGUAUGUACCGAAUCGGCCGGCCGGGGCCGGAAAGUAUUAUGUUACGCCGUUCGGAUCUGCACUUCCA` gave a log2 enrichment of 0.0199.
`UCAAGUCCUGUGCUACACAUCGUAUGUACCGAAUCGGCCCGGCCCGGGGCCCGGGAAAGUAUUAUGUUACGCCGUUCGGAUCUGCACUUC` gave a log2 enrichment of -0.301.
With `GCAGGAAGUAAAAACAAAUGGAAAUGCUUCGGAUAGUGGGAGGGGUGGGGGUUGCUAAGGAAAGGGUGGGAUGGGAGUGGGUAAAGAGUU` the log2 enrichment was -0.244.
With `UUGACAUGAAGACAAUGGAGACUGCAGAGAAACUGGCUAGAUUUGUUGCUCAGGUGGGACCAGAGAUCGAACAAUUCAGCAUAGAAAACA` the log2 enrichment was -0.799.

Series 2 — method: protein-binding microarray; molecule type: double-stranded DNA, one strand shown; matrix: in vitro; tested at: 2200 nM top; setting: 60-bp whole probe; with: salmon DNA 0.4 mg/ml; baseline: random background probes; reading: higher = stronger binding; shared flanks, not repeated: GCCTAGCAC … GTCTTGATTCGCTTGACGCTGCTG
Target: Interferon regulatory factor 7, full length, phosphomimetic (IRF7, Homo sapiens, UniProt Q92985, residues 1-503, S471D/S472D/S475D/S476D/S477D/S483D/S484D/S487D)
Chain of UniProt Q92985 (whole entry, unmodified, looked up): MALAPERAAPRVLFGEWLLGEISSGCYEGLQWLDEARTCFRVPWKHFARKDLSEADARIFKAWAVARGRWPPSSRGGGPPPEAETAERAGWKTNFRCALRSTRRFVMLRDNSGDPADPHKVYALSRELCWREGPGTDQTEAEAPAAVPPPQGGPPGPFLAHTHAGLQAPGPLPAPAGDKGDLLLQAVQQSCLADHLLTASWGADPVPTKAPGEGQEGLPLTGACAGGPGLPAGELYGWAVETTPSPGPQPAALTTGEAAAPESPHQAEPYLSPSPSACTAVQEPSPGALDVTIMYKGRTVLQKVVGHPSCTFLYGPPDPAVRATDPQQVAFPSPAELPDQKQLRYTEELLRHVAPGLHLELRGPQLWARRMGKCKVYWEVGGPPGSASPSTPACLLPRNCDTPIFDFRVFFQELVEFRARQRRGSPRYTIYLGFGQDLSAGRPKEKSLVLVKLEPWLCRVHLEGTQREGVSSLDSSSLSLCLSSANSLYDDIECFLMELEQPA
For `GACGATCTCAGTTTCGAGGCGTGCTAG`, “fitted relative affinity” read 2.53 z-score.
`ACACTTTCCCCTTCCTAGTTGTGCTAG`: “fitted relative affinity” 6.91 z-score.
`GCCGATATCAGACTGGAGACGTGCTAG` — result for “fitted relative affinity”: 0.00385 z-score.
Under “fitted relative affinity”, `TCATATATATCATTTAAACTGTGCTAG` is recorded as 0.653 z-score.
`GACGGTTTCGGGACTGGCGACGTGCTA`: “fitted relative affinity” 3.67 z-score.
For `AGCCTTATCCCTAATCTCAGCGTGCTA`, “fitted relative affinity” read 0.769 z-score.
For `GACGAACTGAGTTTAGAGACGTGCTAG`, “fitted relative affinity” read -0.179 z-score.
For `CGTACTGTATCTAGCCTTGCGTGCTAG`, “fitted relative affinity” read 0.934 z-score.
Under “fitted relative affinity”, `TAGACCTAGAAAGAAACCACGTGCTAG` is recorded as -0.738 z-score.
Under “fitted relative affinity”, `TTAGGTATCGACTTTCGCTTAGTGCTA` is recorded as 4.31 z-score.
Under “fitted relative affinity”, `GACGGACTGCTTTTCCTGCCGTGCTAG` is recorded as 0.538 z-score.
For `TTCACTCTCTGCTTGTATCTGTGCTAG`, “fitted relative affinity” read 2.23 z-score.
For `GGACTGTCAGCCACTTTTTGGTGCTAG`, “fitted relative affinity” read 0.0349 z-score.
`TTAGATTACAGTTTCGATTAGTGCTAG` — result for “fitted relative affinity”: 5.22 z-score.
`TTAGGTAACGGGTATCGGTTAGTGCTA`: “fitted relative affinity” -0.128 z-score.
Under “fitted relative affinity”, `GACGAACCGAGACTGGAGACGTGCTAG` is recorded as 0.123 z-score.
Under “fitted relative affinity”, `ATAGGACTGGGGTATCGGTTAGTGCTA` is recorded as -0.481 z-score.

Series 3 — method: protein binding microarray; molecule type: double-stranded DNA, one strand shown; matrix: in vitro; tested at: not given; baseline: not given; reading: higher = stronger binding
Target: Histone acetyltransferase KAT6A, winged helix 1, GST fusion (KAT6A, Homo sapiens, UniProt Q92794, residues 1-85)
Setting: 8-mer, flanks averaged, mean of 2 arrays, mostly near background
Residues (chain): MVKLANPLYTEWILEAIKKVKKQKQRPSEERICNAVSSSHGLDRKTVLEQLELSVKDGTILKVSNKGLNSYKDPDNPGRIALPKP
With `GCGGTCAC` the E-score was 0.281.
`ATCTGCAC` has an E-score of -0.158.
`CGCGTATC` has an E-score of 0.353.
`ACAGCGAG` has an E-score of 0.11.
With `AATAGGAA` the E-score was -0.0507.
For `CGAACAGA`, the E-score was -0.131.
For `CCGGGTGA`, the E-score was 0.262.
`GATGCCGA` has an E-score of 0.163.
The E-score of `ATTAACCA` is reported as -0.0587.
`GAAGCACC` has an E-score of -0.107.
For `CCCGTAGG`, the E-score was 0.297.
The E-score of `GTCGGTGA` is reported as 0.0788.
`GTCAACAA` gave an E-score of -0.181.
For `GTTGAATA`, the E-score was 0.00956.
`CCTGTATA` has an E-score of -0.0748.
For `ACCCTCAT`, the E-score was -0.294.

Series 4 — method: universal PBM; molecule type: double-stranded DNA, one strand shown; matrix: in vitro; tested at: 600 nM; reading: higher = stronger binding
Target: Sal-like protein 4, full length isoform A (SALL4, Homo sapiens, UniProt Q9UJQ4, residues 1-1053)
Chain of UniProt Q9UJQ4 (whole entry, looked up): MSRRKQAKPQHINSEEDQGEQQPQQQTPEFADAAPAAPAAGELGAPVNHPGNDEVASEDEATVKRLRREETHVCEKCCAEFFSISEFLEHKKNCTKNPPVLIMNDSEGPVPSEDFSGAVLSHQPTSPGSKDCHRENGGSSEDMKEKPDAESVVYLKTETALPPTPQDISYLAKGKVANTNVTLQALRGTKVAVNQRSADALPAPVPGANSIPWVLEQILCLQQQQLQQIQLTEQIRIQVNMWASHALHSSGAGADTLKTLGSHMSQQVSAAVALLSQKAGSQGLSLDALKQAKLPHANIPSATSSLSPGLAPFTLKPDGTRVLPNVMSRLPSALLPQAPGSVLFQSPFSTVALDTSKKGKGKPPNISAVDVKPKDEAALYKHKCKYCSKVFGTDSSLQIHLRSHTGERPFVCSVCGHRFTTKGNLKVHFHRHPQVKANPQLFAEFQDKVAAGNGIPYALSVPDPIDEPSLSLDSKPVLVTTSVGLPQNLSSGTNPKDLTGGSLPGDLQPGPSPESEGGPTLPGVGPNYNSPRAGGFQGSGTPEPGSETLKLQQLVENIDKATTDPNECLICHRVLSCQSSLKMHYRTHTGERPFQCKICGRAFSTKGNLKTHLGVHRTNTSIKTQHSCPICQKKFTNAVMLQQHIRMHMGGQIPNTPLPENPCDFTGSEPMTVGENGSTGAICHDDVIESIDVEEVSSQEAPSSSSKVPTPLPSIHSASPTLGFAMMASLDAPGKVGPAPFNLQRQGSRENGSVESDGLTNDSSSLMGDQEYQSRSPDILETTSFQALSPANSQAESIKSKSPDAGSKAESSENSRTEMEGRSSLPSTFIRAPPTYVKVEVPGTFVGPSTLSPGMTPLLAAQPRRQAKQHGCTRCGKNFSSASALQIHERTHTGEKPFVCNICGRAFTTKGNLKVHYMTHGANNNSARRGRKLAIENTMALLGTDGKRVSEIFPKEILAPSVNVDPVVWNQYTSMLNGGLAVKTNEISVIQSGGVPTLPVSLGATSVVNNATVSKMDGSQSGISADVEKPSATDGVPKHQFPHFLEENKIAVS
Setting: 8-mer, flanks averaged, mean of replicates
The E-score of `CGTTGCAC` is reported as -0.108.
`AGAATTAT` has an E-score of 0.37.
For `CACAGGGA`, the E-score was -0.253.
With `AGCCTACA` the E-score was -0.0314.
With `ACATTGCA` the E-score was 0.09.
`CGGAAAGC` has an E-score of -0.13.
The E-score of `CCGAAAGC` is reported as -0.195.
The E-score of `GAAGTCTA` is reported as 0.109.
`AACAAGTC` has an E-score of 0.0609.
With `AGAACTCG` the E-score was 0.00388.
For `ACAAAGCA`, the E-score was 0.208.
The E-score of `CTGACAAA` is reported as 0.132.
`ACCGGAGG` gave an E-score of -0.278.
`GGTTACAC` has an E-score of -0.0753.
For `CAAGTGAA`, the E-score was 0.131.
`GGTATGGA` has an E-score of -0.00297.
With `AAGATTGG` the E-score was 0.155.
For `GCACCATA`, the E-score was 0.0804.

Excerpt of the above (series 3):
For `CCGGGTGA`, the E-score was 0.262.
`CCTGTATA` has an E-score of -0.0748.
For `ACCCTCAT`, the E-score was -0.294.
The E-score of `ATTAACCA` is reported as -0.0587.
`CGCGTATC` has an E-score of 0.353.
